Measurements gathered from unrelated publications.
Parts stem from different laboratories: compare values within a part only. Changes are numbered by the printed parent chain.

Set 1 — method: universal PBM; molecule type: double-stranded DNA, one strand shown; medium: in vitro; concentration: not given; direction: higher = stronger binding; quantity: E-score
Target: Sal-like protein 4, full length isoform B (SALL4, Homo sapiens, UniProt Q9UJQ4-2, residues 1-616)
Notes: 8-mer, flanks averaged, mean of replicates
AGTCCGCG: -0.192
ACAGATCG: -0.106
AACCTAGG: -0.0331
GGTCAAAA: 0.0407
GCATGCGA: 0.0784
CTATCGAA: 0.221
AGCCGGTA: -0.26
ACCAGCCA: -0.164
GCCGGAGC: -0.235
CCCGACCC: -0.387
AACGTAGA: 0.111
CCCGTGCA: -0.273
GGTGACCA: -0.16
AGGTGCCC: -0.221

Set 2 — method: protein-binding microarray; molecule type: double-stranded DNA, one strand shown; medium: in vitro; concentration: not given; direction: higher = stronger binding; quantity: E-score
Target: Transcriptional repressor CTCF (CTCF, Homo sapiens, UniProt P49711, residues 1-727, full length assumed)
Notes: k-mer, scored over probes, only values ≥0.25
Construct (chain): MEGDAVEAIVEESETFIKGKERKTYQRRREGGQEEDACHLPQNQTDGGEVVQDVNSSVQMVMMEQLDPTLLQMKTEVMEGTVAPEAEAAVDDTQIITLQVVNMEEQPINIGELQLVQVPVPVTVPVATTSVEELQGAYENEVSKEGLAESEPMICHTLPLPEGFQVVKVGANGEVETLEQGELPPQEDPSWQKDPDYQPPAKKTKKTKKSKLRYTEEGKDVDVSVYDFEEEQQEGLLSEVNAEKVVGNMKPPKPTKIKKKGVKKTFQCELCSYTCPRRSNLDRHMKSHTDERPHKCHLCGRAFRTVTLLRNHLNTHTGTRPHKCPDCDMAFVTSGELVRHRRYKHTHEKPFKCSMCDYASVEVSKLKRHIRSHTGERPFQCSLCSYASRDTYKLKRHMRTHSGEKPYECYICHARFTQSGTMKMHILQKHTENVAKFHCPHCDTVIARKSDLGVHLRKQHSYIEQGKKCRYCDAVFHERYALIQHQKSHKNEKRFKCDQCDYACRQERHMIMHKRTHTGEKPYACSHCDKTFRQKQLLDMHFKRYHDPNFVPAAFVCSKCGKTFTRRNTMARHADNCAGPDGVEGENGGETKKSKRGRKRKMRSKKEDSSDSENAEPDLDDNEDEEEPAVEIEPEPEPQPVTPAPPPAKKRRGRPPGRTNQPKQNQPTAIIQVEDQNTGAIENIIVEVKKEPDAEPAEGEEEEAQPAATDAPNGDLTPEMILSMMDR
TAATCGTA: 0.273
GTATAATA: 0.38
CCTATAGG: 0.278
ATTTAATG: 0.313
GTTTGGTA: 0.318
CCACTAGG: 0.473
ATGCGTAA: 0.27
ATTTTTGC: 0.294
ATAAATTC: 0.289
GGGTAACA: 0.252

Set 3 — method: protein-binding microarray; molecule type: double-stranded DNA, one strand shown; medium: in vitro; concentration: 250 nM; notes: 60-bp whole probe; together with: salmon DNA 0.4 mg/ml; relative to: random background probes; direction: higher = stronger binding; quantity: log fluorescence; all sequences stand within: GCCTAGCAC … GTCTTGATTCGCTTGACGCTGCTG
Target: Interferon regulatory factor 5, full length, phosphomimetic (IRF5, Homo sapiens, UniProt Q13568-2, residues 1-514, K96S/S451D/S453D/S456D/S462D)
GGATGAGCAAGGGGGCCTCGGTGCTAG: -0.437 z-score
TAATTTTTTAGCTTCTCAATGTGCTAG: 0.617 z-score
TTAGGACTGGACACGGGGTTAGTGCTA: -0.832 z-score
CATCATTGCTTTCTCTTTCAGTGCTAG: 4.7 z-score
GACGGTATCGGGATTGGGGACGTGCTA: 1.45 z-score
ATATATATTATATATACACATGTGCTA: 0.942 z-score
GACGATTTCTGTCTCGAGACGTGCTAG: 1.83 z-score
TTAGGACGGGACTTTCGGTTAGTGCTA: 9.74 z-score
TTATATTTCAGACTGGATTAGTGCTAG: 0.775 z-score
TCATATCCCTAATCTCAGACTGTGCTA: 0.518 z-score
TTTTAAAATGGACACTGTACAGTGCTA: 0.289 z-score
TTAGGTTCCGGTTTCCGTTAGTGCTAG: 2.85 z-score
GACGGACTGGGGTATCGGGGCGTGCTA: -0.12 z-score
CTTTTTCCCTATTATATATATGTGCTA: 1.98 z-score
TCATCTTTCACTGGTCCTACTGTGCTA: 3.02 z-score
TTAGGTTTCGGTCTCTGTTAGTGCTAG: 10.1 z-score
TCACCTCTAGGAATGTAACTGTGCTAG: -0.0375 z-score
GACGGGATCGGTTTCGGGACGTGCTAG: 3.39 z-score
GACGGTATTGGTTTCGGGACGTGCTAG: 5.41 z-score

Set 4 — method: DHFR PCA, deep sequencing; medium: yeast; together with: (+)-ABA 0.39 µM; relative to: wild-type fitted maximum; direction: higher = stronger binding; quantity: relative binding score
Target: ABI1, truncated, D143A, DHFR fusion (Arabidopsis thaliana)
Notes: methotrexate growth selection, single substitutions
Starting sequence: PYL1, truncated, DHFR fusion (Arabidopsis thaliana); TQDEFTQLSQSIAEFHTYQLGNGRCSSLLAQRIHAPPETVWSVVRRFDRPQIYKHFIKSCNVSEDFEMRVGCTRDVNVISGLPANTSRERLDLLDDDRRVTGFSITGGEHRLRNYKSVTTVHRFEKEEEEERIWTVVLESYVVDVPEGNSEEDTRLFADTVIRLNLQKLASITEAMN; partner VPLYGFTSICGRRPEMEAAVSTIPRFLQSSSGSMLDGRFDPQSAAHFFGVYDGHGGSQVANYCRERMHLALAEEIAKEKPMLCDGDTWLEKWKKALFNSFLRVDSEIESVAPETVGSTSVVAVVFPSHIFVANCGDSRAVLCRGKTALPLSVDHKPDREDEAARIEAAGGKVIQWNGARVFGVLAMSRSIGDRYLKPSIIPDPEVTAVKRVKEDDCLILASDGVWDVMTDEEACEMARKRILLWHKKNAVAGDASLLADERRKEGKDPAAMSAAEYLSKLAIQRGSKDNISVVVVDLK
T6M: 52.2%
V143W: -20.5%
N114C: 3.68%
V43E: -0.38%
T86H: 44.6%
R32F: 30.6%
N22K: 59.7%
D144A: -9.13%
R99Y: 80.9%
G81R: -4.93%
D65M: 5.66%
P146H: 0.0821%
R90E: 14.3%
N149T: 57.4%
T135D: -4.93%
D159A: -15.3%

Set 5 — method: RNA Bind-n-Seq; molecule type: RNA; medium: in vitro; concentration: not given; relative to: input RNA pool; direction: higher = stronger binding; quantity: bound/input enrichment
Target: RING finger protein unkempt homolog, zinc fingers 1-6, GST-SBP tag (UNK, Homo sapiens, UniProt Q9C0B0, residues 30-357)
Notes: RNA with constant flanks, human-mouse chimeric sites, ends assumed
Residues (chain): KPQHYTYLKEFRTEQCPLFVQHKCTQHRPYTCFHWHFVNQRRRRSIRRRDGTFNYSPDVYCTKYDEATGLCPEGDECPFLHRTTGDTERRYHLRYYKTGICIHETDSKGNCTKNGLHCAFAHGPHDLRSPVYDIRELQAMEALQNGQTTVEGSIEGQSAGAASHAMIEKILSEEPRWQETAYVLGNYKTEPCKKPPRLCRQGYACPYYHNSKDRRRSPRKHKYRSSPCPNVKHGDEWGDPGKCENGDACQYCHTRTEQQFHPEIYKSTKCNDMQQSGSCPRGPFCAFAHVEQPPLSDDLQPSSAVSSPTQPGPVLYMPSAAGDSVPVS
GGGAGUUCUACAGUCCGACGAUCUCGGAUGCUGUGCUGGGUCACUUUUCAUAUCCUGAUCCUUCACAGUGGACAGAUGAAGAACUGGGAAUCCCUCCUGAUGAUGAAGACUGACACUGUAAACUCUCUGGACGAGUAGGAGCACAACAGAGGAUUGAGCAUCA: 0.41 ratio
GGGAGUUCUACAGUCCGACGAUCGGACCAUAAUCAUGGAGGACAUAAUGCAGCUCCCCAAGUCGCGCAUCAACGCCAGCAUGUUACCACAGUAUAUCGACCGGCCCGUGUGCUUCGUGGGGAAGCUGGAAAAGAUUCAUCCCACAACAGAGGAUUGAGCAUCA: 0.0771 ratio
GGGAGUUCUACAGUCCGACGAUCCAGGGCAUCAUCUCUCGAGCUGUUAAACACCUUUUUAAGAGUAUUGAUGAGAAAAAGACCUCAGCGAUUAAAAACGGGCUGCCCCCUCCUGAAUUCAAAGUGAAUGCCCAGUUCCUAGAGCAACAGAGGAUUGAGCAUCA: 0.632 ratio
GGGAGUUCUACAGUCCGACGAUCAAAUCGUGUGUGUCCAAUAUUGAAAGUGCUUUAUCUACACUCCAAUAUGUAAGCAGUAUAGUAGUUUCUUUAGAGAAUAGGUCAGCCAUUGUGAAGUACAAUGCAAGCUUAGUCACUCCACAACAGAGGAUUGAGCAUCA: 12.4 ratio
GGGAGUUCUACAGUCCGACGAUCAACUUCGUGCAUCGGUUUCCCUUUGUAGCUGUUUCAAUUGGCUUCCUUGUGAAUAAAGAGAUGGAGUUUGGAAUUGUGUACAGUUGUGUGGAAGGCAAGAUGUACACCGGCAGGAAAGGGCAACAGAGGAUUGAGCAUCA: 0.371 ratio
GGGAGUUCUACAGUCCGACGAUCUCUUAACUUAUUCAUUUAACUUAUUUUUAUAGCUAGAUAAAUAUUGUUAGUCUUAGACAAUAGCUCACAUUUUUUGAGAAGCAUGCCCUCCCUAUCCAUUUGUCUUACAAUAACACUCAGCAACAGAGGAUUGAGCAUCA: 6.64 ratio
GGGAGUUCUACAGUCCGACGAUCUACUCAACUUUCUUUCCACGUUUUGAAUUCCAAGACAUUAUUCCUCCAGAUGACUUCCUAACGAGUGAUGAAGAGCAAGAUUUGGUUUUAUUUGGAACUAUGAGAGGACAAGUUGUUGGACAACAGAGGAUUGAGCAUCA: 0.131 ratio
